Assay results gathered from unrelated publications.
Every numbered part comes from another study and shows a few of its results, in no order.

Sample 1
Target: Interferon regulatory factor 7, full length, phosphomimetic (IRF7, Homo sapiens, UniProt Q92985, residues 1-503, S471D/S472D/S475D/S476D/S477D/S483D/S484D/S487D)
Technique: protein-binding microarray
Molecule type: double-stranded DNA, one strand shown
Sample: in vitro
Concentration: 2200 nM top
Notes: 60-bp whole probe
Added: salmon DNA 0.4 mg/ml
Relative to: random background probes
Reading: higher = stronger binding
Quantity: fitted relative affinity
All sequences stand within: GCCTAGCAC … GTCTTGATTCGCTTGACGCTGCTG
Residues (chain): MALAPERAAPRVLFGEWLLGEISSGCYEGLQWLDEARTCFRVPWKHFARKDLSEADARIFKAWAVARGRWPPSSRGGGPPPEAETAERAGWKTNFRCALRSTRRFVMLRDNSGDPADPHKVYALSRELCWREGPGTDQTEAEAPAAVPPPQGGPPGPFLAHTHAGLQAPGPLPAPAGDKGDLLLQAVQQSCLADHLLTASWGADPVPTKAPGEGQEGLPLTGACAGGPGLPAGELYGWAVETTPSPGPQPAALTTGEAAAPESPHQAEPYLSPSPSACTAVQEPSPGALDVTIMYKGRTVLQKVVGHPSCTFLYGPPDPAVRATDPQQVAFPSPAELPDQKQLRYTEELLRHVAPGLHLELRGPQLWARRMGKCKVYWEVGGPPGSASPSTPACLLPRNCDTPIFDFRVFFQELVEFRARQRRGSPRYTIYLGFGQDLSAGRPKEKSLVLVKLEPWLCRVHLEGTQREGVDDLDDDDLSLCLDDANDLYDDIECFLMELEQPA
TTAGGATTCGACACTGGGTTAGTGCTA: 0.0338 z-score
TTAGGTTTCGGGTTTCGGTAAGTGCTA: 9.19 z-score
TCAGCTTTCTTTATGCAACTGTGCTAG: 1.7 z-score
GACGATATCCGACTGGAGACGTGCTAG: 0.125 z-score
TTAGATATCAGTTTCGTTTAGTGCTAG: 6.59 z-score
GGCGGACTGGGTATCGGGACGTGCTAG: -1.48 z-score
GTTTCATTCCTGATCTCTGGGTGCTAG: 2.67 z-score
TTAGATATCGGGTATCGATTAGTGCTA: 0.123 z-score

Sample 2
Target: Replicase polyprotein 1ab, nsp13 helicase (rep, Severe acute respiratory syndrome coronavirus 2, UniProt P0DTD1)
Action: inhibitor
Concentration: 20 µM
Quantity: inhibition
CN1CCc2cc(Cl)c(O)cc2[C@@H](c2ccccc2)C1: 0.53%
CC(C)=CCC/C(C)=C/CC/C(C)=C/CSc1ccccc1C(=O)O: 5.11%
Cn1ncc2c(N3CCOCC3)nc(-c3cccc(O)c3)nc21: 6.76%
Nc1n[n+]([O-])c2ccccc2[n+]1[O-]: 1.59%
O=C(O)Cc1cccc2c(=O)cc(-c3ccccc3)oc12: 0.27%
COc1ccc2[nH]c([S+]([O-])Cc3ncc(C)c(OC)c3C)nc2n1 (stereo not shown): 90%
CS(=O)(=O)c1cccc(CNc2nc(Nc3ccc4c(c3)CCC(=O)N4)ncc2C(F)(F)F)c1: 5.48%
CCCN1CCO[C@@H]2c3cc(O)ccc3OC[C@H]21: 3.7%
COC(=O)[C@@H](N)CCCNC(=N)N[N+](=O)[O-]: 3.34%
Cc1cc(NC(=O)C2=C(O)c3ccccc3S(=O)(=O)N2C)no1: 3.22%
O=C(CCCCCCCC(=O)NCCO)NCCO: 0%
C[C@@H](CN1CC(=O)NC(=O)C1)N1CC(=O)NC(=O)C1: -11.8%
COC(=O)C1=C(C#N)NC(C)=C(C(=O)OC(C)C)C1c1cccc([N+](=O)[O-])c1 (stereo not shown): 8.77%
CCC(=O)NS(=O)(=O)c1ccc(-c2c(-c3ccccc3)noc2C)cc1: -5.11%

Sample 3
Target: Histone acetyltransferase KAT6A, both winged helices, GST fusion (KAT6A, Homo sapiens, UniProt Q92794, residues 1-181)
Technique: protein binding microarray
Molecule type: double-stranded DNA, one strand shown
Sample: in vitro
Concentration: not given
Notes: 8-mer, flanks averaged, mean of 2 arrays, mostly near background
Relative to: not given
Reading: higher = stronger binding
Quantity: E-score
Target sequence (chain): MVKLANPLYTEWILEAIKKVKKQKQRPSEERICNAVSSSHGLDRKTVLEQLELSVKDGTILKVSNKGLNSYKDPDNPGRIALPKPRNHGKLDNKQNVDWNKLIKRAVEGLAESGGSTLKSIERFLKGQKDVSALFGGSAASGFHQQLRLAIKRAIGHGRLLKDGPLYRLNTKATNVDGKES
CCGCGGCA: 0.403
CTAGATAC: 0.0573
CCGCGATC: 0.26
GTGCTTCA: -0.196
AAATTCCC: 0.0851
CGTTACGC: 0.278
ACAGTGCA: -0.104
ATCAACGC: 0.107

Further values, each from its own experiment
Concentration: 10 µM
Time: 16 h
NC(=O)C(c1ccccc1)(c1ccccc1)[C@@H]1CCN(CCc2ccc3c(c2)CCO3)C1
pseudovirus infection (HEK-293T; VSV pseudotyped with SARS-CoV-2 spike): 34.7%

CC(CN(C)C)CN1c2ccccc2CCc2ccccc21 (stereo not shown)
GFP-positive cells (HEK-293T; pseudovirus infection, FDA-approved drug library screen; VSV pseudotyped with SARS-CoV-2 spike; relative to: vehicle-treated): 23.2%

N[C@@H](Cc1ccc(O)c(O)c1)C(=O)O
viability (HEK-293T/ACE2; relative to: vehicle): 101%

c1ccc(Cc2nc3ccccc3[nH]2)cc1
GFP-positive cells (HEK-293T; pseudovirus infection, FDA-approved drug library screen; VSV pseudotyped with SARS-CoV-2 spike; relative to: vehicle-treated): 80.8%

Repeated from above (sample 2):
CS(=O)(=O)c1cccc(CNc2nc(Nc3ccc4c(c3)CCC(=O)N4)ncc2C(F)(F)F)c1: 5.48%
CCCN1CCO[C@@H]2c3cc(O)ccc3OC[C@H]21: 3.7%
